Assay results of several laboratories.
± gives the spread as reported.
Medium: plasma

CCn1nc(C2CC2)cc1Nc1nc(C(=O)NCCCCCc2cccc3c2CN(C2CCC(=O)NC2=O)C3=O)nc2[nH]c3cc(-c4c(C)noc4C)c(OC)cc3c12 (centres unmarked) — plasma concentration (female SCID C.B-17 mouse; intravenous, 5 mg/kg single, 6 h): 5.5 ng/mL
CC(C)(O/N=C(\C(=O)N[C@H]1CN2CC(C(=O)NCCN3C(=O)c4cc(O)c(O)cc4C3=O)=C(C(=O)O)N2C1=O)c1nc(N)sc1Cl)C(=O)O — plasma concentration (CD-1 mouse; intravenous or subcutaneous, 50 mg/kg, 6 h): > 1000 ng/mL
Cc1cc(-c2cc(OC(=O)c3ccccc3)ccc2Cl)cc2nnc(Nc3ccc(OCCN4CCCC4)cc3)nc12 — plasma concentration at 24 h (C57BL/6 mouse; topical, 1%): not detected
CC1(C)Oc2cc3oc(=O)ccc3cc2C[C@@H]1O — plasma Amy activity (male CD-1 mouse; oral gavage, 80 mg/kg daily, 4 weeks): 773 ± 38.3 U/L
COc1cccc2c1C(=O)c1c(O)c3c(c(O)c1C2=O)C[C@@](O)(C(C)=O)C[C@@H]3O[C@H]1C[C@H](N)[C@H](O)[C@H](C)O1 — plasma concentration (refers to: daunorubicin; BALB/c mouse; intravenous, 10 mg/kg, any time point; baseline: micellar daunorubicin): < 10%
CNC(=O)c1cc2c(Oc3ccc(NC(=O)C4(C(=O)Nc5ccc(F)cc5)CC4)cc3)ccnc2cc1OC — plasma concentration (LC-MS/MS; mouse, Hs746T xenograft; oral, 100 mg/kg single dose, 4 h): 63 µM
O=C(OC(C(F)(F)F)C(F)(F)F)N1CCN(Cc2ccc(C(F)(F)F)cc2N2CCCC2)CC1 — plasma concentration (wild-type mouse; oral in chow, 350 mg/kg chow, 7 days, P25): 394 ± 49 ng/mL
CCCCCCCCCCCCCCCC(=O)N[C@@H](CCCNC(=N)N)C(=O)N[C@@H](C)C(=O)N[C@@H](CC(C)C)C(=O)N[C@@H](CCC(N)=O)C(=O)N[C@@H](CCCCN)C(=O)N[C@@H](CCCNC(=N)N)C(=O)N[C@@H](CC(C)C)C(=O)N[C@@H](CCCNC(=N)N)C(=O)N[C@@H](CCC(=O)O)C(=O)N1CCC[C@H]1C(=O)N[C@@H](CCC(=O)O)C(=O)N[C@@H](CCCCN)C(=O)N[C@@H](CCC(N)=O)C(=O)N1CCC[C@H]1C(=O)N[C@@H](CCCCN)C(=O)N[C@@H](CC(C)C)C(=O)N[C@@H](CCC(N)=O)C(=O)N[C@@H](CCCNC(=N)N)C(=O)N[C@@H](C)C(=O)N[C@@H](CCC(N)=O)C(=O)N[C@@H](C)C(N)=O — plasma concentration (mouse, CD-1; subcutaneous, 10 mg/kg, 15 min to 6 h): 1.6 to 4.3 µM

For quick reference, copied from above:
CC1(C)Oc2cc3oc(=O)ccc3cc2C[C@@H]1O — plasma Amy activity (male CD-1 mouse; oral gavage, 80 mg/kg daily, 4 weeks): 773 ± 38.3 U/L
